{"data": "Published values gathered from unrelated publications", "note": "Parts stem from different laboratories: compare values within a part only."}
{"data": "Sample 1", "target": "Ras GTPase-activating protein-binding protein 1, full length (G3BP1, Homo sapiens, UniProt Q13283)", "technique": "RNA Bind-n-Seq", "form": "RNA", "sample": "in vitro", "concentration": "200 nM", "setting": "whole 134-nt RNA, ends assumed", "added": "150 mM LiCl", "reference": "input library", "reading": "higher = stronger binding", "library": "7-deaza-guanosine replaces G", "shared flanks, not repeated": "GGGAGUUCUACAGUCCGACGAUC … UGGAAUUCUCGGGUGUCAAGG", "sequence of UniProt Q13283 (whole entry, looked up)": "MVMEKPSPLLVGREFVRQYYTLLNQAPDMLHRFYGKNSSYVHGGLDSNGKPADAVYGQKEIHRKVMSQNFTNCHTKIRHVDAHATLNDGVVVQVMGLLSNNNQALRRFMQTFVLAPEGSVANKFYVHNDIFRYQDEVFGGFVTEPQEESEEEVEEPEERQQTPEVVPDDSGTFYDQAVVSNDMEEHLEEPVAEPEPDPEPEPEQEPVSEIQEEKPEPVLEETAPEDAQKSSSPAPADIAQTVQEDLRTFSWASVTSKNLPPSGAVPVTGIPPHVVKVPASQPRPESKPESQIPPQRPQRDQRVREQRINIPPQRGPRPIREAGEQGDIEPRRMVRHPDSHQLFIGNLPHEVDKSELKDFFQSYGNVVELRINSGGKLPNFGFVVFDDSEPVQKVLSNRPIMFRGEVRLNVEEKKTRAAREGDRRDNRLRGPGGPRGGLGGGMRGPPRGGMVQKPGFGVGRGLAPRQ"}
{"Oligonucleotide": "AGUCCUGUGCUACACAUCGUAUGUACCGAAUCGGUUUUUGGAAAAAAAGGAAAAAGGAAAGUAUUAUGUUACGCCGUUCGGAUCUGCACU", "log2 enrichment": -2.4}
{"Oligonucleotide": "GUCCUGUGCUACACAUCGUAUGUACCGAAUCGGGGAGGGGAAAGGGGAAAAAAAGGGGAAAGUAUUAUGUUACGCCGUUCGGAUCUGCAC", "log2 enrichment": 0.712}
{"Oligonucleotide": "AGUCCUGUGCUACACAUCGUAUGUACCGAAUCGGGAGGGUUUUUUUGGGAAAAAGGGAAAGUAUUAUGUUACGCCGUUCGGAUCUGCACU", "log2 enrichment": -0.578}
{"Oligonucleotide": "CUCAAGUCCUGUGCUACACAUCGUAUGUACCGAAUCGGAAGGAAGGGAAGGGGAAAGUAUUAUGUUACGCCGUUCGGAUCUGCACUUCCA", "log2 enrichment": 0.00842}
{"Oligonucleotide": "CAAGUCCUGUGCUACACAUCGUAUGUACCGAAUCGGAAAAAAAGGAAAGGUUUGGAAAGUAUUAUGUUACGCCGUUCGGAUCUGCACUUC", "log2 enrichment": -2.25}
{"Oligonucleotide": "AGUCCUGUGCUACACAUCGUAUGUACCGAAUCGGGUUUGGGUUUGGGAAAAAAAGGGAAAGUAUUAUGUUACGCCGUUCGGAUCUGCACU", "log2 enrichment": -1.15}
{"Oligonucleotide": "UCCUGUGCUACACAUCGUAUGUACCGAAUCAAAUUUUUAAAUUUUUAAAUUUUUUUAAAAAAGUAUUAUGUUACGCCGUUCGGAUCUGCA", "log2 enrichment": -2.02}
{"Oligonucleotide": "AAGUCCUGUGCUACACAUCGUAUGUACCGAAUCGGGCCCCGGGCCCCGGCCCCGGGGAAAGUAUUAUGUUACGCCGUUCGGAUCUGCACU", "log2 enrichment": -0.42}
{"data": "Sample 2", "target": "Interferon regulatory factor 7, full length, phosphomimetic (IRF7, Homo sapiens, UniProt Q92985, residues 1-503, S101K/S471D/S472D/S475D/S476D/S477D/S483D/S484D/S487D)", "technique": "protein-binding microarray", "form": "double-stranded DNA, one strand shown", "sample": "in vitro", "concentration": "250 nM", "setting": "60-bp whole probe", "added": "salmon DNA 0.4 mg/ml", "reference": "random background probes", "reading": "higher = stronger binding", "shared flanks, not repeated": "GCCTAGCAC … GTCTTGATTCGCTTGACGCTGCTG", "Construct (chain)": "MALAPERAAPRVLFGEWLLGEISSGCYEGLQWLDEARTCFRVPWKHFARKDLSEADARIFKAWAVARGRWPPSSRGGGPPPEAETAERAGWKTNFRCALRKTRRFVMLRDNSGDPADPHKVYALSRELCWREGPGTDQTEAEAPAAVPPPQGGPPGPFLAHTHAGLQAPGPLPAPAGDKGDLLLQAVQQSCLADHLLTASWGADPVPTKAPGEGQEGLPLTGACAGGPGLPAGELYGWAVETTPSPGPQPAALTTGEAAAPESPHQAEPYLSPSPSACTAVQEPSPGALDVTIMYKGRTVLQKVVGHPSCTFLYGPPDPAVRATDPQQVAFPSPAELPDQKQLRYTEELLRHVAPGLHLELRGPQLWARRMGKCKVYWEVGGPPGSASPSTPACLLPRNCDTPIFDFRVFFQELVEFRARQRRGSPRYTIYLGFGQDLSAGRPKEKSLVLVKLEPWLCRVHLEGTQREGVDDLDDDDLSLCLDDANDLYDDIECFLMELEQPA"}
{"Oligonucleotide": "TCAGACTTTGGTTTGTAACTGTGCTAG", "log fluorescence [z-score]": 0.0599}
{"Oligonucleotide": "TTAGGACTGCTACTGCTTTAGTGCTAG", "log fluorescence [z-score]": -0.458}
{"Oligonucleotide": "GACGATCTCAGTCTCGAGATGTGCTAG", "log fluorescence [z-score]": 0.537}
{"Oligonucleotide": "TTAGATCTCAGTTTCGATAAGTGCTAG", "log fluorescence [z-score]": 3.78}
{"Oligonucleotide": "GTGCCTTTATATACCTGAATGTGCTAG", "log fluorescence [z-score]": 0.975}
{"Oligonucleotide": "GACGGTAGCGGGACTGGGGACGTGCTA", "log fluorescence [z-score]": -0.87}
{"Oligonucleotide": "TGAGGTTTCCTTTCCCTTTAGTGCTAG", "log fluorescence [z-score]": 4.42}
{"Oligonucleotide": "GACGAGATCAGTCTCGAGACGTGCTAG", "log fluorescence [z-score]": 0.705}
{"data": "Mixed results", "concentration": "concentration not given"}
{"Substance": "NVP-AEW541", "tested on": "HH", "setting": "unit not given", "reference": "untreated control", "measurement": "viability", "result": 0.937}
{"Substance": "LVRDITESL", "tested on": "HLA class I histocompatibility antigen, A alpha chain, allele A*80:01 (Homo sapiens, UniProt P04439)", "observed": "peptide-MHC binding", "form": "peptide", "measurement": "binding", "result": "inactive"}
{"Substance": "capivasertib", "tested on": "HH", "setting": "unit not given", "reference": "untreated control", "measurement": "viability", "result": 0.523}
{"note": "Repeated from above (sample 1):"}
{"Oligonucleotide": "AGUCCUGUGCUACACAUCGUAUGUACCGAAUCGGGAGGGUUUUUUUGGGAAAAAGGGAAAGUAUUAUGUUACGCCGUUCGGAUCUGCACU", "log2 enrichment": -0.578}
